Experimental data from different studies.
Lines come from different studies, so protocols differ.
Organism: Staphylococcus aureus

SMILES	test	test system	conditions	MIC
CNC(CC(C)C)C(=O)NC1C(=O)NC(CC(N)=O)C(=O)NC2C(=O)NC3C(=O)NC(C(=O)NC(C(=O)NCCCNC(=N)N)c4cc(O)cc(O)c4-c4cc3ccc4O)C(O)c3ccc(c(Cl)c3)Oc3cc2cc(c3OC2OC(CO)C(O)C(O)C2OC2CC(C)(NCc3ccc(-c4ccc(Cl)cc4)cc3)C(O)C(C)O2)Oc2ccc(cc2Cl)C1O (stereo not drawn)	–	MRSA ATCC 43300	–	0.02 µg/mL
CNC(CC(C)C)C(=O)NC1C(=O)NC(CC(N)=O)C(=O)NC2C(=O)NC3C(=O)NC(C(=O)NC(C(=O)O)c4cc(O)cc(O)c4-c4cc3ccc4O)C(O)c3ccc(c(Cl)c3)Oc3cc2cc(c3OC2OC(CO)C(O)C(O)C2OC2CC(C)(NC(=O)CCCCCCCC[n+]3ccccc3)C(O)C(C)O2)Oc2ccc(cc2Cl)C1O (stereo not drawn)	agar dilution	MRSA clinical isolate MRSA4	–	64 µg/mL
CCn1cc[n+](CC)[c]1[Au-][Cl]	broth dilution	MRSA DSM 11822	20 h, 37 °C	2.8 µM
CN(C)c1cc(CN2CCCCCC2)c(O)c2c1C[C@H]1C[C@H]3[C@H](N(C)C)C(O)=C(C(N)=O)C(=O)[C@@]3(O)C(O)=C1C2=O	microbial growth, broth dilution	–	–	1 µg/mL
CCCCCCCCCc1nc2cc(F)ccc2c(=O)n1O	broth microdilution	RN6390B	–	100 µM
CC1CCN(CCCN2/C(=C/c3cc(/C=C/c4c[nH]c5ccccc45)[n+](C)c4ccccc34)Sc3ccccc32)CC1	microbial growth, broth dilution	ATCC43300 MRSA	–	16 µg/mL
CNCc1cc(N(C)C)c2c(c1O)C(=O)C1=C(O)[C@]3(O)C(=O)C(C(N)=O)=C(O)[C@@H](N(C)C)[C@@H]3C[C@@H]1C2	–	RN4250, Tet K efflux	–	8 µg/mL
O=C1c2ccccc2C(=O)c2c1ccc1c2C(C(=O)Nc2ccccc2)C(=O)C1c1ccccc1 (stereo not drawn)	microbial growth	–	–	64 µg/mL
CCc1ccccc1NC(=O)CSc1nc2ccccc2c(=O)n1-c1ccc(S(N)(=O)=O)cc1	–	methicillin-resistant	24 h, 37 °C	15.6 µg/mL
CCCCc1ccc(N2C(=O)/C(=N\NC(=N)N)c3cc([N+](=O)[O-])ccc32)cc1	microbial growth, broth dilution	–	18 h	> 192 µg/mL
CN[C@H](CC(C)C)C(=O)N[C@H]1C(=O)N[C@@H](CC(N)=O)C(=O)N[C@H]2C(=O)N[C@H]3C(=O)N[C@H](C(=O)N[C@H](C(=O)O)c4cc(O)cc(O)c4-c4cc3ccc4O)[C@H](O)c3ccc(c(Cl)c3)Oc3cc2cc(c3O[C@@H]2O[C@H](CO)[C@@H](O)[C@H](O)[C@H]2O[C@H]2C[C@](C)(N)[C@H](O)[C@H](C)O2)Oc2ccc(cc2Cl)[C@H]1O	microbial growth, broth dilution	MRSA USA300	–	0.5 µg/mL
C=CCO[C@H]1[C@H](O)[C@@H](N)[C@@H](O[C@H]2[C@H](O[C@@H]3O[C@H](CO)[C@@H](O[C@H]4O[C@@H](CN)[C@@H](O)[C@H](O)[C@H]4N)[C@H]3O)[C@@H](O)[C@H](N)C[C@@H]2N)O[C@@H]1CO	broth microdilution	MRSA isolate AG 044	–	8 to 16 µg/mL
Oc1c(Br)c(Cl)c(Br)c2nc3c(C(F)(F)F)cc(C(F)(F)F)cc3nc12	broth microdilution	MRSA 44	–	0.78 µM
O=C1/C(=C(\O)C2CCCCC2)C(=O)[C@@]2(C(=O)OC3CCCCC3)CS[C@H](c3ccccc3)N12	broth dilution	MRSA	added: Fe3+, Ca2+, Mg2+, Zn2+ at blood levels	7.81 µg/mL
CN(C)c1cc(CNCc2ccccc2)c(O)c2c1C[C@H]1C[C@H]3[C@H](N(C)C)C(O)=C(C(N)=O)C(=O)[C@@]3(O)C(O)=C1C2=O	–	MRSA 5, Tet M, 50% human serum	–	32 µg/mL

For quick reference, copied from above:
SMILES	test	test system	conditions	MIC
CCn1cc[n+](CC)[c]1[Au-][Cl]	broth dilution	MRSA DSM 11822	20 h, 37 °C	2.8 µM
